Published values gathered from unrelated publications.
Parts stem from different laboratories: compare values within a part only.

Block 1
Target: Interferon regulatory factor 3, full length, phosphomimetic (IRF3, Homo sapiens, UniProt Q14653, residues 1-427, S386D/S396D/S398D/S402D/T404D/S405D)
Technique: protein-binding microarray
Molecule type: double-stranded DNA, one strand shown
Sample: in vitro
Tested at: 2540 nM top
Setting: 60-bp whole probe
Added: salmon DNA 0.4 mg/ml
Relative to: random background probes
Reading: higher = stronger binding
All sequences stand within: GCCTAGCAC … GTCTTGATTCGCTTGACGCTGCTG
Residues (chain): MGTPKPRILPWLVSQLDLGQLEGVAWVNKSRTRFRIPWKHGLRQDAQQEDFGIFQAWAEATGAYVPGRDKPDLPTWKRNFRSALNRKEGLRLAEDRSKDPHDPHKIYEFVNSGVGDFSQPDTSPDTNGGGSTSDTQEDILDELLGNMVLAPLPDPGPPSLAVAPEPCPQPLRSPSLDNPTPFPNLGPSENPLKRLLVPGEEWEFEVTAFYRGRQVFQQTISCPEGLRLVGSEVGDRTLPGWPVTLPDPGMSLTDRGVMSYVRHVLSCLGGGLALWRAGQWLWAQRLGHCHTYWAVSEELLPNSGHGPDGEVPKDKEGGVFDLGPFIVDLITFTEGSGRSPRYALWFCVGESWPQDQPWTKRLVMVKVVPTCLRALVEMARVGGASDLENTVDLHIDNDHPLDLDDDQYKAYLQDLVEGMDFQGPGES
Strand | fitted relative affinity [z-score]
GACGGTTTAGGGACTGGGGACGTGCTA | 0.117
TTAGGTATCGACTTTCGGCTAGTGCTA | 0.917
GACGGACTTGGGTTTCGGGACGTGCTA | 0.968
TCTATAATGGATATATATCAGTGCTAG | 0.238
TTAGGTATCCCTCTCCTTTAGTGCTAG | 5.25
TTAGGGATCGGACTGGGTTAGTGCTAG | -0.22
TAAGGTTTCGGTTTCGGTTAGTGCTAG | 12.7
GACGAACTAAGTATCGAGACGTGCTAG | 0.383
TTAGGTTTCTGTATCGGTTAGTGCTAG | 5.03
TCATTTTTTTTATTTATACTGTGCTAG | 1.31
GAGGGACTGCTTCTCCTGACGTGCTAG | -0.74
TTAGAACTAGGGTATCGATTAGTGCTA | -0.257
TTAGGTATTCTACTGCTTTAGTGCTAG | -0.247
TTAGGTTTCCTTTTCCTTGAGTGCTAG | 11.4
TTATATTTCGGGACTGGATTAGTGCTA | 1.08

Block 2
Target: Sal-like protein 4, full length isoform A (SALL4, Homo sapiens, UniProt Q9UJQ4, residues 1-1053)
Chain of UniProt Q9UJQ4 (whole entry, looked up): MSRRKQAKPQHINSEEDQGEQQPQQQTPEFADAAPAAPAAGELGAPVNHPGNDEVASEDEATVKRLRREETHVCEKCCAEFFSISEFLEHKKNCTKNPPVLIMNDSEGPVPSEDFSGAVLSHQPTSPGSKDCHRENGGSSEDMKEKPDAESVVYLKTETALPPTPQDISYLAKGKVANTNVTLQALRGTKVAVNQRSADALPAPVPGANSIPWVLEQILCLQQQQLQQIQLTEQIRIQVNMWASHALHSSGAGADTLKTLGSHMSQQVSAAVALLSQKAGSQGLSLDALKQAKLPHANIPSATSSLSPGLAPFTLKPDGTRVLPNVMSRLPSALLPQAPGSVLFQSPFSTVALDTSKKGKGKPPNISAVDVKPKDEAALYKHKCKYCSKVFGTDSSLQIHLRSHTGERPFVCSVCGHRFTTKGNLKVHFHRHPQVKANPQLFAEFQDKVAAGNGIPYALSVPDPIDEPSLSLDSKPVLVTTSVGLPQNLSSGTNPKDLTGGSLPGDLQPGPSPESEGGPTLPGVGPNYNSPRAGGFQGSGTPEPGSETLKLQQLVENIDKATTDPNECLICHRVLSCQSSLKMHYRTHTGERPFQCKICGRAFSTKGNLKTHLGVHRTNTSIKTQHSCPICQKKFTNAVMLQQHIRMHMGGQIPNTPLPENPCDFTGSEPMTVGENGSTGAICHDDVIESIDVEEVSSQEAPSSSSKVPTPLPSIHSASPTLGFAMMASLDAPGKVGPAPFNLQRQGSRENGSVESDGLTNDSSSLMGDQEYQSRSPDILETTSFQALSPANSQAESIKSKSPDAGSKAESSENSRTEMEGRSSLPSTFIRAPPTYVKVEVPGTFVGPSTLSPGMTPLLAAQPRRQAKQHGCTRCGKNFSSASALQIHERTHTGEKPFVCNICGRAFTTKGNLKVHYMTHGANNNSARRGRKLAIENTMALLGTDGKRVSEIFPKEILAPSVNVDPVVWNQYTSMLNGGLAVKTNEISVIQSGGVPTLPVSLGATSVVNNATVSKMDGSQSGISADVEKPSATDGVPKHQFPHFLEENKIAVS
Technique: universal PBM
Molecule type: double-stranded DNA, one strand shown
Sample: in vitro
Tested at: 600 nM
Setting: 8-mer, flanks averaged, mean of replicates
Reading: higher = stronger binding
Strand | E-score
AACTATCT | 0.152
AACCTATA | 0.335
CAATACCG | -0.179
ACGTCGAA | -0.0887
GAATTTGA | 0.131
ATTAACAA | 0.364
CTACCAAA | 0.0866
GTTTGTTA | 0.199
AATCTCAG | -0.0471
GGGCAGGA | -0.217
CCGGTGCC | -0.36

Single results of other studies
Molecule | target or system | assay | system | conditions | how to read | quantity | result
IPDRSTKPVVFSPT | – | peptide binding | peptide, yeast competitive growth | added: B2-Cln2 chimera | direction not given | enrichment score | 0.406
PhoQ, residues 284 288 289 292 302 303 AEGLLW | PhoP, residues 12 14 15 18 19 NHTVL (Escherichia coli, UniProt P23836) | Sort-seq, item: YFP reporter | E. coli | PhoQ-PhoP variant library, added: 10 µM Mg2+ | relative to: high Mg2+ state, higher = stronger signaling | fold induction | 2.89
PPVIIKYIIINRF | Saccharomyces cerevisiae | peptide binding, yeast competitive growth sequencing | peptide, cyclin E2-Cln2 fusion | library 2 | direction not given | enrichment score | -0.435
GSALKKLFTSTGL | Cln2 (Saccharomyces cerevisiae) | peptide binding, competitive growth sequencing | peptide, Saccharomyces cerevisiae, unfused Cln2 strain | mutational scanning library 1 | direction not given | enrichment score | -1.55

For quick reference, copied from above (single results of other studies):
Molecule | target or system | assay | system | conditions | how to read | quantity | result
GSALKKLFTSTGL | Cln2 (Saccharomyces cerevisiae) | peptide binding, competitive growth sequencing | peptide, Saccharomyces cerevisiae, unfused Cln2 strain | mutational scanning library 1 | direction not given | enrichment score | -1.55
PhoQ, residues 284 288 289 292 302 303 AEGLLW | PhoP, residues 12 14 15 18 19 NHTVL (Escherichia coli, UniProt P23836) | Sort-seq, item: YFP reporter | E. coli | PhoQ-PhoP variant library, added: 10 µM Mg2+ | relative to: high Mg2+ state, higher = stronger signaling | fold induction | 2.89
PPVIIKYIIINRF | Saccharomyces cerevisiae | peptide binding, yeast competitive growth sequencing | peptide, cyclin E2-Cln2 fusion | library 2 | direction not given | enrichment score | -0.435
IPDRSTKPVVFSPT | – | peptide binding | peptide, yeast competitive growth | added: B2-Cln2 chimera | direction not given | enrichment score | 0.406
